Assay results gathered from unrelated publications.
Each line is one published result; not all experiments were run side by side. “And” joins repeats or separate records; there may be more than shown. Numbers after ± are the reported error.
SNCA filaments: Alpha-synuclein, filaments (SNCA, Homo sapiens, UniProt P37840)
SNCA oligomers: Alpha-synuclein, oligomers (SNCA, Homo sapiens, UniProt P37840)
SNCA fibrils: Alpha-synuclein, fibrils (SNCA, Homo sapiens, UniProt P37840)

| Structure (SMILES) | target | assay | system | conditions | quantity | value |
| --- | --- | --- | --- | --- | --- | --- |
| CNc1ccc(-c2nc3ccc(O)cc3s2)cc1 | SNCA filaments | radioligand displacement | α-synuclein filaments | with: [3H]Me-BTA-1 4 nM | Ki | 16.5 ± 4.36 nM |
| O=C(OC[C@H]1O[C@@H](OC(=O)c2cc(O)c(O)c(O)c2)[C@H](OC(=O)c2cc(O)c(O)c(O)c2)[C@@H](OC(=O)c2cc(O)c(O)c(O)c2)[C@@H]1OC(=O)c1cc(O)c(O)c(O)c1)c1cc(O)c(O)c(O)c1 | SNCA oligomers | oligomer-induced calcein release, inhibitor | DOPG liposomes |  | IC50 | 10 nM |
| CN(C)c1ccc(-c2ccc(/C=C/C=C3\Cc4ccc(O)cc4C3=O)cc2)cc1 | SNCA fibrils | fluorescence saturation binding | synthetic alpha-synuclein fibrils | 1 h | Kd | 236 ± 10.5 nM |
| COc1ccc(/C=C/C(=O)c2nc3ccccc3s2)cc1 | SNCA fibrils | fibril binding, thioflavin T competition |  | 1 µM fibrils, with: thioflavin T 3 µM | Ki | 531 nM and 530 nM |
| O=C(O[C@@H]1Cc2c(O)cc(O)cc2O[C@@H]1c1cc(O)c(O)c(O)c1)c1cc(O)c(O)c(O)c1 | SNCA oligomers | oligomer-induced calcein release, inhibitor | DOPG liposomes |  | IC50 | 80 nM |
| O=C(/C=C/c1ccc([N+](=O)[O-])cc1)c1nc2ccccc2s1 | SNCA fibrils | fibril binding, thioflavin T competition |  | 1 µM fibrils, with: thioflavin T 3 µM | Ki | > 500 nM |
| N#Cc1ccc(-c2ccc(/C=C/C=C3\Cc4ccc(O)cc4C3=O)cc2)s1 | SNCA fibrils | fluorescence saturation binding | synthetic alpha-synuclein fibrils | 1 h | Kd | 149 ± 20.6 nM |
| CN(C)c1ccc(-c2cc3cc(Br)ccc3o2)cc1 | SNCA filaments | binding, radioligand displacement | α-synuclein fibrils | with: 4 nM [3H]Me-BTA-1 | Ki | 4.78 ± 0.43 nM |

For quick reference, copied from above:
| Structure (SMILES) | target | assay | system | conditions | quantity | value |
| --- | --- | --- | --- | --- | --- | --- |
| COc1ccc(/C=C/C(=O)c2nc3ccccc3s2)cc1 | SNCA fibrils | fibril binding, thioflavin T competition |  | 1 µM fibrils, with: thioflavin T 3 µM | Ki | 531 nM and 530 nM |
